{"data": "Experimental data from different studies", "matrix": "plasma", "note": "Protocols differ between the studies behind these lines."}
{"Structure (SMILES)": "Cn1c(=O)oc2ccc(-c3ccc(CC(C#N)NC(=O)C4CNCCCO4)c(F)c3)cc21 (centres unmarked)", "test system": "human", "conditions": "20 mg once daily, day 28, median", "Tmax [h]": 1.5}
{"Structure (SMILES)": "C[Si]1(C[C@@H](CN)CC(=O)O)CCCC1", "test system": "male Sprague-Dawley rat", "conditions": "oral, 30 mg/kg, single dose", "Tmax [h]": 0.67}
{"Structure (SMILES)": "Cc1ccc(OCC(=O)N(Cc2cccs2)c2ccn[nH]2)cc1", "test system": "female Sprague-Dawley rat", "conditions": "oral, 10 mg/kg, single dose", "Tmax [h]": 0.25}
{"Structure (SMILES)": "CCc1c2c(nc3ccc(O)cc13)-c1cc3c(c(=O)n1C2)COC(=O)[C@]3(O)CC", "test system": "human patients", "conditions": "intravenous, 133 mg/m^2 of parent drug", "Tmax [h]": 1.21}
{"Structure (SMILES)": "C[Si](C)(C)C[C@H](CN)CC(=O)O", "test system": "male Sprague-Dawley rat", "conditions": "oral, 30 mg/kg, single dose", "Tmax [h]": 0.83}
{"Structure (SMILES)": "N#Cc1cnc2cc(OCC3CCNCC3)c(F)cc2c1Nc1cc(F)c(OCc2cccc(Cl)n2)cc1Cl", "test system": "male Sprague-Dawley rat", "conditions": "oral, 30 mg/kg", "Tmax [h]": 3}
{"Structure (SMILES)": "O=C(CCc1ccc(CNC(C(=O)OC2CCCC2)C2CCCCC2)cn1)NO (centres unmarked)", "test system": "human", "conditions": "oral, 5 mg, single dose, median", "Tmax [h]": 0.75}
{"Structure (SMILES)": "CCc1cc(Nc2nc(-c3ccc(-n4cnc(C)c4)c(F)c3)cs2)c(C)cc1C", "test system": "human, both sexes", "conditions": "oral, 100 mg once daily, day 14, multiple dose, geometric mean", "Tmax [h]": 4.3}
{"note": "Some of these lines once more:"}
{"Structure (SMILES)": "C[Si]1(C[C@@H](CN)CC(=O)O)CCCC1", "test system": "male Sprague-Dawley rat", "conditions": "oral, 30 mg/kg, single dose", "Tmax [h]": 0.67}
